Published values pooled from the literature.
Each line is one published result; not all experiments were run side by side. “And” joins repeats or separate records; there may be more than shown.
PRKG1: cGMP-dependent protein kinase 1 (PRKG1, Homo sapiens, UniProt Q13976)
PRKG1 isoform beta: cGMP-dependent protein kinase 1, isoform beta (PRKG1, Homo sapiens, UniProt Q13976)

CN1CCN(Cc2ccc(-c3ccc(CO[C@H]4CCC[C@@H]4NC(=O)c4cc(-c5cnn(C)c5)cnc4N)cc3)cc2)CC1 — inhibition (PRKG1; enzyme activity, inhibitor; 0.1 µM): 7%
O=C(Cc1ccc(OCc2ccccc2)cc1)NC1(C(=O)O)CCN(C(=O)c2ccc(-c3cccc(Cl)c3)cc2)CC1 — activity vs control (PRKG1; enzyme activity, inhibitor; 10 µM): 106%
CN1CC[C@@H](COc2cnc(C#N)cc2-c2ccn3nc(NC(=O)C4CC4)cc3c2)C1 — inhibition (PRKG1; enzyme activity, inhibitor; 1 µM): -8%
COc1cc(Nc2nc(C)cc(-c3cnn4nc(OC)ccc34)n2)cc(C(F)(F)F)c1 — remaining activity (PRKG1; inhibitor; 1 µM; relative to: control): 92%
Cc1ccc(-c2c(/C=C(\C#N)C(=O)NC(C)C)n(CCCO)c3ncnc(N)c23)cc1 — remaining binding (PRKG1; cell-free assay, competition with immobilised ligand; 1 µM): 100%
CC(C)=CC1OC(C)(C)C2C=C3C(=O)C(Cl)=CC(O)C3C3C(O)C4OC4C(=O)C132 (centres unmarked) — remaining binding (PRKG1; cell-free assay, competition with immobilised ligand; 10 µM): 63%
C=CC(=O)Nc1cccc(-c2cnc3[nH]cc(C(=O)NC(C)(C)C)c3n2)c1 — inhibition (PRKG1; enzyme activity, inhibitor; 0.1 µM): 5%
CCN1CCN(Cc2ccc(C(=O)Nc3ccc(C)c(NCc4cnc5[nH]ccc5c4OC)c3)cc2C(F)(F)F)CC1 — remaining binding (PRKG1; binding, competition with immobilised ligand; 1 µM): 100%
C=CC(=O)N1CCCC(n2c(=O)c3ncccc3n(Cc3ccc(Oc4ccccc4)cc3)c2=O)C1 (centres unmarked) — remaining binding (PRKG1; cell-free assay, competition with immobilised ligand; 1 µM): 97%
COCC12C(=O)NC3C4(C(OC)CC1O)C1CC5(O)C(OC)C(O)C(OC(C)=O)(C1C5OC(=O)c1ccccc1)C3(O)C(OC)C24 (centres unmarked) — remaining activity (PRKG1; kinase activity, inhibitor, ProQinase kinase profiling; 25 µM; relative to: control): 97% and 100%
C=CC(=O)N1Cc2nc(-c3cc(-c4cc(Cl)cnc4Cl)c(F)cc3F)n(-c3ccncn3)c2C1 — inhibition (PRKG1; cell-free assay, inhibitor; 1 µM): 3%
Cc1cccc(O[C@H]2CCC[C@@H](C(C)CNCc3ccncc3)C2)c1 (relative stereo) — inhibition (PRKG1; enzyme activity, inhibitor; 10 µM): -11%
NC(=O)[C@@H](O)C[C@H]1CCc2sc3ncnc(O[C@H]4CC[C@H](N5CCOCC5)CC4)c3c21 — inhibition (PRKG1; radioisotope kinase; 10 µM): -3%
O=C(O)CCC(=O)c1cccc(NS(=O)(=O)c2c[nH]c3ncccc23)c1 — remaining activity (PRKG1; kinase activity, radiometric; 10 µM): 99%
NC(=O)C[C@H]1CCc2sc3ncnc(O[C@H]4CC[C@H](N5CCOCC5)CC4)c3c21 — inhibition (PRKG1; radioisotope kinase; 10 µM): -1%
Nc1ncc(-c2cc(-c3cnn(CC(F)(F)F)c3)ncc2F)nc1C(=O)NC1CNCC(F)C1 (centres unmarked) — remaining activity (PRKG1; enzyme activity; 1 µM; relative to: DMSO control): 108%
O=C=[N][Ru-4]123([n]4c5ccc(O)cc5c5c6c(c7cc(F)c[n+]1c7c54)C(=O)NC6=O)[S+]1CC[S+]2CC[S+]3CC1 (centres unmarked) — remaining activity (PRKG1; enzyme activity; 100 nM, human enzyme, added: 10 µM ATP; relative to: untreated): 25%
COc1ccc(NC(=O)Nc2ccc3c(c2)C(=O)N(C(C)CO)CC(C)C(CN(C)Cc2ccc4c(c2)OCO4)O3)cc1 (centres unmarked) — remaining activity (PRKG1; kinase activity, KinaseProfiler; 0.03 µM, species human; relative to: control): 95%
COc1c(OCCCN2CCOCC2)ccc2c1N=C(NC(=O)c1cnc(N)nc1)N1CCN=C21 — remaining activity (PRKG1 isoform beta; kinase activity, inhibitor; 1 µM; relative to: untreated control): 89%
Cc1nc2c(F)cc(-c3nc(Nc4ccc(CNC(=O)CCCCCCC(=O)NO)cc4)ncc3F)cc2n1C(C)C — inhibition (PRKG1 isoform beta; kinase activity; 1 µM): 77%
